Measured values collected from several papers.
Each numbered part is a random draw from the data of one study; scales do not carry over between parts. Changes are numbered by the printed parent chain.
Sequence of UniProt P62837 (whole entry, looked up): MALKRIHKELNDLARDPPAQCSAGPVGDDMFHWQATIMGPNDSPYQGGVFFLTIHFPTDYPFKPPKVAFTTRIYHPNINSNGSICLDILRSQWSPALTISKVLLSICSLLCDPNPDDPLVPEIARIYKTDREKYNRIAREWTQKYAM

Series 1
Target: Histone acetyltransferase KAT6A, both winged helices, GST fusion (KAT6A, Homo sapiens, UniProt Q92794, residues 1-181)
Technique: protein binding microarray
Form: double-stranded DNA, one strand shown
Sample: in vitro
Concentration: not given
Notes: 8-mer, flanks averaged, mean of 2 arrays, mostly near background
Baseline: not given
Direction: higher = stronger binding
Residues (chain): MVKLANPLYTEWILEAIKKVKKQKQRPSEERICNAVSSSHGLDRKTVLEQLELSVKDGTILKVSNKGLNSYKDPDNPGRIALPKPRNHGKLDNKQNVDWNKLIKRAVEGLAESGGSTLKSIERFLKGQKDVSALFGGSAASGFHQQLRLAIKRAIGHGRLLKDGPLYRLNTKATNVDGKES
Oligonucleotide | E-score
CATGGAAA | -0.153
ATCCGACA | 0.0669
GTAGACGA | -0.0266
GACTGGGA | -0.123
AATATGAA | -0.0221
AGGCATGC | 0.0267
GGCCTTAC | 0.0209
ACCAAAGA | -0.138

Series 2
Target: CCNE1, cyclin fold, Cln2 fusion (human)
Technique: yeast growth competition, sequencing
Sample: yeast
Notes: strong parent motif
Baseline: not given
Direction: higher = stronger binding
Starting sequence: viral docking peptide; TSVRRALFTGGSD
Substitution | normalised enrichment score
L7V | 0.103
V3S | 0.467
T9I | 5.23
G10Y | 4.59
R5M | 0.312
T9M | 5.29
V3T | 1.82
R5C | 0.54
S2P | 4.64
S2T | 5.78
A6H | 3.01
F8H | 0.219
G10H | 5.22
G11F | 5.05
T9C | 5.08

Series 3
Target: Interferon regulatory factor 3, full length, phosphomimetic (IRF3, Homo sapiens, UniProt Q14653, residues 1-427, S386D/S396D/S398D/S402D/T404D/S405D)
Technique: protein-binding microarray
Form: double-stranded DNA, one strand shown
Sample: in vitro
Concentration: 2540 nM top
Notes: 60-bp whole probe
Together with: salmon DNA 0.4 mg/ml
Baseline: random background probes
Direction: higher = stronger binding
Shared flanks, not repeated: GCCTAGCAC … GTCTTGATTCGCTTGACGCTGCTG
Residues (chain): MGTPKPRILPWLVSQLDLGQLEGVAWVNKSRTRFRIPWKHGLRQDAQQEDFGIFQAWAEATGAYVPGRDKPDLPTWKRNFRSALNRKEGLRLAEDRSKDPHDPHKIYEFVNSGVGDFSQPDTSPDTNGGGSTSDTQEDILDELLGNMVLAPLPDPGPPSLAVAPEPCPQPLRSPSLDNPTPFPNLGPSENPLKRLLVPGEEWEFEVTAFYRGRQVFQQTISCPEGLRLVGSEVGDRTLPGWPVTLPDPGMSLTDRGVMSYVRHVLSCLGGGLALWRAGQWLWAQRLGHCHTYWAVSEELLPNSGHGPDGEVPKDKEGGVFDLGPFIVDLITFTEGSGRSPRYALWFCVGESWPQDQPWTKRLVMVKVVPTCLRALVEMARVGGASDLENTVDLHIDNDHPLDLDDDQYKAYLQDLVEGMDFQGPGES
Oligonucleotide | fitted relative affinity [z-score]
TTAGGTCTCGGGCTCGGTTAGTGCTAG | -0.609
TTAGAACTGAGTTTCGATTAGTGCTAG | 2.62
TTAGGTCTACTTCTCCTTTAGTGCTAG | 0.793
GAAGATATCGGGTATCGAGACGTGCTA | -0.0587
GACGGACTGGTTATCCTGACGTGCTAG | -0.0623
GACGGTATCGACATTCGGGACGTGCTA | 0.798
GACGGATTCCTTATCCTGACGTGCTAG | 3.58
GACGATTTCAGACTGGACACGTGCTAG | 0.981

Further values, each from its own experiment
HLA class I histocompatibility antigen, A alpha chain allele A*25:01: HLA class I histocompatibility antigen, A alpha chain, allele A*25:01 (Homo sapiens, UniProt P04439)
Sequence | target | assay | test system | conditions | scale | endpoint | result
RLAPEPVYT | HLA class I histocompatibility antigen, A alpha chain allele A*25:01 | peptide-MHC binding | peptide | concentration not given |  | binding | inactive
YPEEVDDDLICHICLQALLDPLDTPCGHTYCTLCLTNFLVEKDFCPMDRKPLVLQHCKK (LNX1 RING domain (UniProt Q8TBB1)) | UBE2D2 UBC core domain (UniProt P62837) | yeast two-hybrid | yeast | mostly zero background | baseline: not given, higher = stronger interaction | lacZ reporter activity | 0
YQVEGATRV | HLA class I histocompatibility antigen, A alpha chain allele A*25:01 | peptide-MHC binding | peptide | concentration not given |  | binding | inactive
NMDKAVKLY | HLA class I histocompatibility antigen, A alpha chain allele A*25:01 | peptide-MHC binding | peptide | concentration not given |  | binding | inactive

A few entries again (series 3):
Oligonucleotide | fitted relative affinity [z-score]
GACGGTATCGACATTCGGGACGTGCTA | 0.798
GACGGACTGGTTATCCTGACGTGCTAG | -0.0623
GAAGATATCGGGTATCGAGACGTGCTA | -0.0587
